Experimental data collected from several papers.
± marks the error that the study gave. ≈ marks a conversion by molar mass, not a printed value. Where no end group is shown, it is not given here.

Substance	organism	test	system	conditions	how to read	quantity	value
CCCCCn1c(=O)[nH]c2cc(C(=O)NCCN3CCCCC3C)ccc2c1=O (stereo not drawn)	Hepatitis C virus	HCV infection, Gaussia luciferase reporter	Huh7.5.1 reporter cells	–	baseline: 10 µM cyclosporin A, DMSO, negative means inhibition	maximal response	-67.6%
CC(=NNC(=O)CN1c2c(-c3ccccc3)n[nH]c2-c2ccccc2S1(=O)=O)c1ccc[nH]1	HIV-1	viral replication	PBMC	–	–	EC90	> 100 µM
O=C(NCC1CCNCC1)c1cc2ccc(-c3ccoc3)cc2[nH]1	Zika virus	viral replication	U-87 MG, FLR	1 µM	–	inhibition	68%
SSASAW	rhesus rotavirus	–	peptide, newborn BALB/c mice, RRV biliary atresia	intraperitoneal, 500 µg at birth and days 1 and 2, 21 days	–	mortality	92.9%
C[C@@H]1C[C@H]2[C@@H]3CCC4=CC(=O)C=C[C@]4(C)[C@@]3(F)[C@@H](O)C[C@]2(C)[C@@]1(O)C(=O)CO	Danio rerio	GRE luciferase reporter	–	20 µM, 9 h	–	earliest stage with reporter increase	2 dpf
CCCCCCCCOc1c(OC)cc(NC(C)CCCNC(=O)C(N)Cc2cc3ccccc3[nH]2)c2nc(C(C)(C)C)ccc12 (stereo not drawn)	Staphylococcus aureus	microbial killing	ATCC33591 MRSA	drug-resistant strain	–	MBC	> 20 µg/mL
TRTRVSRLY	rhesus rotavirus	–	peptide, newborn BALB/c mice, RRV biliary atresia	intraperitoneal, 500 µg at birth and days 1 and 2, 21 days	–	mice with biliary atresia symptoms	21.1%
O=C(CN1c2c(n[nH]c2-c2cccc(Cl)c2)-c2ccccc2S1(=O)=O)NN=Cc1ccc(Br)cc1	HIV-1	viral replication	PBMC	–	–	EC90	22.2 µM
CCOP(=S)(OCC)Oc1cc(C)nc(C(C)C)n1	Hydra vulgaris	morphology	–	92 h	–	EC10	32 µM
CCCCCCCCOc1c(OC)cc(NC(C)CCCNC(=O)C(N)C(C)CC)c2nc(C(C)(C)C)ccc12 (stereo not drawn)	Staphylococcus aureus	microbial killing	ATCC33591 MRSA	drug-resistant strain	–	MBC	> 20 µg/mL
TDVDHVFLRF-OH (C-acid)	Drosophila melanogaster	gut contraction	peptide, adult gut	1 µM, within 10 min	baseline: DMS effect	inhibition	71%
CCCCCCOc1c(OC)cc(NC(C)CCCNC(=O)C(N)Cc2cc3ccccc3[nH]2)c2nc(C(C)(C)C)ccc12 (stereo not drawn)	Staphylococcus aureus	microbial growth	ATCC33591 MRSA	drug-resistant strain	–	IC50	5.43 µg/mL (≈ 9.02 µM)
CP(=O)(O)CCC(N)C(=O)O (stereo not drawn)	Digitaria sanguinalis	–	–	500 g/ha, 13 days, DIGSA, post-emergence spray	baseline: untreated (0%), complete kill (100%)	herbicidal activity	100%
CC(=O)OC[C@]12Oc3ccc(-c4ccc5c(c4O)C(=O)C4=C(O)C[C@@H](C)[C@@H](OC(C)=O)[C@@]4(COC(C)=O)O5)c(O)c3C(=O)C1=C(O)C[C@@H](C)[C@H]2OC(C)=O	Phyllosticta citricarpa	–	PDA plates	10000 µg/mL, 504 h	–	mycelial growth	3.3 ± 0.2 cm
CC[C@H](C)[C@H](NC(=O)[C@H](CCCCN)NC(=O)[C@H](Cc1c[nH]c2ccccc12)NC(=O)[C@H](Cc1c[nH]c2ccccc12)NC(=O)[C@H](CCCCN)NC(=O)[C@H](CCCCN)NC(=O)[C@H](CCCCN)NC(=O)[C@H](Cc1c[nH]c2ccccc12)NC(=O)[C@H](CCCCN)NC(=O)[C@H](CCCCN)NC(=O)[C@H](Cc1c[nH]c2ccccc12)NC(=O)[C@H](CCCCN)NC(=O)[C@H](CCCCN)NC(=O)[C@@H](NC(=O)[C@@H](NC(=O)[C@H](CCCCN)NC(=O)[C@@H](N)CCCNC(=N)N)[C@@H](C)CC)[C@@H](C)CC)C(=O)N[C@@H](Cc1c[nH]c2ccccc12)C(=O)N[C@@H](Cc1c[nH]c2ccccc12)C(=O)N[C@@H](CCCCN)C(=O)NCCOCCOCC(N)=O	Klebsiella pneumoniae	membrane permeabilization, flow cytometry	9409	4 µM	–	PI-positive cells	79.3%
CC(=NNC(=O)CN1c2c(-c3ccccc3)n[nH]c2-c2ccccc2S1(=O)=O)c1cc(C)oc1C	HIV-1	viral replication	PBMC	–	–	EC90	> 100 µM
CN[C@@H]1[C@H](O)[C@H](NC)[C@H]2O[C@@]3(O)C(=O)C[C@@H](C)O[C@H]3O[C@@H]2[C@H]1O	Haemophilus influenzae	microbial growth, disc diffusion	ATCC49247	40 µg/disc	–	inhibition zone	11 to 12.5 mm
CC[C@H](C)[C@H](NC(=O)[C@H](CCCCN)NC(=O)[C@H](CCC(=O)O)NC(=O)[C@H](CCCCN)NC(=O)[C@H](CO)NC(=O)[C@H](CCCCN)NC(=O)[C@H](CCCNC(=N)N)NC(=O)[C@H](Cc1ccccc1)NC(=O)[C@H](Cc1ccccc1)NC(=O)[C@H](CC(=O)O)NC(=O)CNC(=O)[C@H](CC(C)C)NC(=O)[C@@H](N)CC(C)C)C(=O)NCC(=O)N[C@@H](CCCCN)C(=O)N[C@@H](CCC(=O)O)C(=O)N[C@@H](Cc1ccccc1)C(=O)N[C@@H](CCCCN)C(=O)N[C@@H](CCCNC(=N)N)C(=O)N[C@H](C(=O)N[C@H](C(=O)N[C@@H](CCC(N)=O)C(=O)N[C@@H](CCCNC(=N)N)C(=O)N[C@H](C(=O)N[C@@H](CCCCN)C(=O)N[C@@H](CC(=O)O)C(=O)N[C@@H](Cc1ccccc1)C(=O)N[C@@H](CC(C)C)C(=O)N[C@@H](CCCNC(=N)N)C(=O)N[C@@H](CC(N)=O)C(=O)N[C@@H](CC(C)C)C(=O)N[C@H](C(=O)N1CCC[C@H]1C(=O)N[C@@H](CCCNC(=N)N)C(=O)N[C@H](C(=O)N[C@@H](CCC(=O)O)C(=O)N[C@@H](CO)C(=O)O)[C@@H](C)O)C(C)C)[C@@H](C)CC)C(C)C)[C@@H](C)CC	Staphylococcus aureus	–	JE2 SAUSA300_1089 lspA transposon mutant	12.5% TSB	baseline: wild type over mutant	MIC ratio	2 fold
CC(C)C[C@H](NC(=O)[C@H](C)NC(=O)[C@H](CC(C)C)NC(=O)[C@H](CCCCN)NC(=O)[C@H](CCCCN)NC(=O)[C@H](Cc1c[nH]c2ccccc12)NC(=O)[C@H](CC(C)C)NC(=O)[C@H](CC(C)C)NC(=O)[C@H](C)NC(=O)[C@H](CC(C)C)NC(=O)[C@H](CCCCN)NC(=O)[C@H](CCCCN)NC(=O)[C@H](CC(C)C)NC(=O)[C@H](C)NC(=O)[C@H](CC(C)C)NC(=O)[C@H](C)NC(=O)[C@H](CC(C)C)NC(=O)[C@H](CCCCN)NC(=O)[C@@H](N)CCCCN)C(=O)N[C@@H](C)C(=O)N[C@@H](CC(C)C)C(=O)N[C@@H](CCCCN)C(=O)N[C@@H](CCCCN)C(=O)N[C@@H](C)C(N)=O	Pseudomonas aeruginosa	broth microdilution	PAO1	overnight, 37 °C	–	MIC50	4.2 ± 0.92 µM (≈ 11.2 µg/mL)
STFFRLFNRSFTQGRRRRSVQWCA	Streptococcus sanguis	OD600	peptide, ATCC 49295, 4 h single-species biofilm	128 µg/ml, 5 min exposure, OD600 read over 5 h	–	biofilm growth	no effect
CCCCOc1c(OC)cc(NC(C)CCCNC(=O)C(N)CCCN)c2nc(C(C)(C)C)ccc12 (stereo not drawn)	Staphylococcus aureus	–	MRSA ATCC 33591	–	–	MBC	> 20 µg/mL
LSTFFRLFNGRRRRSVQWCA	Streptococcus gordonii	OD600	peptide, ATCC 10558, 4 h single-species biofilm	128 µg/ml, 5 min exposure, OD600 read over 5 h	–	biofilm growth	no effect
CC1CCCCN1CCCNC(=O)c1ccc2c(=O)n(CCc3ccccc3)c(=O)[nH]c2c1 (stereo not drawn)	Hepatitis C virus	HCV infection, Gaussia luciferase reporter	Huh7.5.1 reporter cells	–	baseline: 10 µM cyclosporin A, DMSO, negative means inhibition	maximal response	-67.8%
OC(Cn1cncn1)(Cn1cncn1)c1ccc(F)cc1F	Candida tropicalis	fungal growth, broth microdilution	ATCC 750, fluconazole and amphotericin B resistant	24 and 48 h	–	MIC99	> 200 µM
insulin human	EcoHIV	radial arm water maze	infected C57BL/6J mice	intranasal, dose not given, single dose	–	duration of cognitive benefit	~24 h
DVDHVFLRF-NH2 (C-amide)	Drosophila melanogaster	heart rate	adult heart	40 nL injected, 1 µM, 10 min	baseline: DMS	inhibition	86%
CCCCCCOc1c(OC)cc(NC(C)CCCNC(=O)C(N)CCSC)c2nc(C(C)(C)C)ccc12 (stereo not drawn)	Staphylococcus aureus	microbial killing	ATCC33591 MRSA	drug-resistant strain	–	MBC	20 µg/mL (≈ 36.6 µM)
C=C1[C@@H](C)[C@H]2[C@H](Cc3ccccc3)NC(=O)[C@]23[C@H](O)/C=C/[C@](C)(O)C[C@@H](C)C/C=C/[C@H]3[C@@H]1O	Phyllosticta citricarpa	–	PDA plate	100 µL of 10 mg/mL, 21 days, methanol solution	–	mycelial growth	3.2 ± 0.2 cm
CCCCCCCOc1c(OC)cc(NC(C)CCCNC(=O)C(N)CCSC)c2nc(C(C)(C)C)ccc12 (stereo not drawn)	Staphylococcus aureus	microbial growth	ATCC33591 MRSA	drug-resistant strain	–	IC50	3.02 µg/mL (≈ 5.38 µM)
ADVDHVFLRF-NH2 (C-amide)	Drosophila melanogaster	heart rate	wandering third instar larval heart	40 nL injected, 1 µM, 10 min	baseline: DMS	inhibition	64%
